Published values of several laboratories.
A part holds a random share of what one study measured.

Sample 1
Target: Sal-like protein 4, full length isoform A (SALL4, Homo sapiens, UniProt Q9UJQ4, residues 1-1053)
UniProt Q9UJQ4, sequence (whole entry, looked up): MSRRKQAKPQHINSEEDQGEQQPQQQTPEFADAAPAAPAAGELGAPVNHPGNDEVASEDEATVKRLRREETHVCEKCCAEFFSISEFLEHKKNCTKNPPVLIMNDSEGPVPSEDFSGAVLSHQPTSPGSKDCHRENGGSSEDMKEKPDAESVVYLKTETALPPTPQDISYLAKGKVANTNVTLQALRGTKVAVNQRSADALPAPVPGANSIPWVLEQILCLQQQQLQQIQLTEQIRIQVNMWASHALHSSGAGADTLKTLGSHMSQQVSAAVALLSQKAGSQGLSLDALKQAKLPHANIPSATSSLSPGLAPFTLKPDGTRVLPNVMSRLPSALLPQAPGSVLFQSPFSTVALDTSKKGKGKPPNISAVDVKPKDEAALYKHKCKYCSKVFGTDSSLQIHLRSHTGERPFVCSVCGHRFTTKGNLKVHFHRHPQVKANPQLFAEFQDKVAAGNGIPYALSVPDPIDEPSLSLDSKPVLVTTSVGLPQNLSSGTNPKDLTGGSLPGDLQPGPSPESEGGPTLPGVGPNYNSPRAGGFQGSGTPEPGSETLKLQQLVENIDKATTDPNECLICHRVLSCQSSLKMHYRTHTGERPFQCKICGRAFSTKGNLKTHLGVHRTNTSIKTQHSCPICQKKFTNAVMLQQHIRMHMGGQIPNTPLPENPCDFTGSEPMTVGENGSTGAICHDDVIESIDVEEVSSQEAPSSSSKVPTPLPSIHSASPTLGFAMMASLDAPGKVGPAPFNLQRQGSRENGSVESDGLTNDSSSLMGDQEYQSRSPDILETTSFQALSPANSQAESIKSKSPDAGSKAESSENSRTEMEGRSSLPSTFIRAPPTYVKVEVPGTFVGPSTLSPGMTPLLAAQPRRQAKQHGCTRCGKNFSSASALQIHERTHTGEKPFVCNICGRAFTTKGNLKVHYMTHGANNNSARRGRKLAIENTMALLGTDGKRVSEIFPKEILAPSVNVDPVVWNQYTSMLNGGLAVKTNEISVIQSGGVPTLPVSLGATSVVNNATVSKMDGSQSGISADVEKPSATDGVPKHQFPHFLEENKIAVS
Technique: universal PBM
Form: double-stranded DNA, one strand shown
Sample: in vitro
Tested at: 600 nM
Setting: 8-mer, flanks averaged, mean of replicates
Direction: higher = stronger binding
Measurement: E-score
ACGTGTGG: -0.0422
CTTCATTC: 0.0651
CAGTAGAG: -0.0971
GCTTGCAA: 0.0766
CAAGGAGC: -0.0322

Sample 2
Target: Hepatocyte nuclear factor 3-alpha (Foxa1, Mus musculus, UniProt P35582, residues 1-468, full length assumed)
Technique: EMSA with sequencing
Form: double-stranded DNA, one strand shown
Sample: in vitro
Tested at: 10 and 20 nM
Setting: whole designed probe, mean of two concentrations, ends assumed
Baseline: negative control set to 0
Direction: higher = stronger binding
Measurement: normalised bound fraction
Target sequence (chain): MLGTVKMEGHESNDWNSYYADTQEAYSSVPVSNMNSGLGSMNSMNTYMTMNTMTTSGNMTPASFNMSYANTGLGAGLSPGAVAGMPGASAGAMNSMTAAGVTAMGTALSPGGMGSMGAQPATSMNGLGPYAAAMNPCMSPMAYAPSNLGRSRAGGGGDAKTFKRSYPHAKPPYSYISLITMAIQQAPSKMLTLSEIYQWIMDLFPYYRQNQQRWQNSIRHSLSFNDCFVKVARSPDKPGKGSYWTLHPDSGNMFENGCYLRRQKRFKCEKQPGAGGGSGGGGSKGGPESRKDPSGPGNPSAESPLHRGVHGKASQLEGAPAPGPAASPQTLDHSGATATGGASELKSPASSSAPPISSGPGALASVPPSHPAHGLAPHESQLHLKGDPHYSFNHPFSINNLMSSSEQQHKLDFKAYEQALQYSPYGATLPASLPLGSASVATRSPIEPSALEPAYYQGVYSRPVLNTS
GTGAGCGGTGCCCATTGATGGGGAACATCTTCCCCCTCTTCCTTGCCCCACCAGCTCACCTTCCCGGGTTATTTGCAGATAGGAAAATAAATAAAGCCGGCATTCGTTAACCCTCTTCACGCGCATACTGCACATTGGTCTGGATCTAACATGGTCCTTTGGCGACGCCAGGCTCCGGGAGAGCAAAGCACCGTGTCAGGGCCATGATCCGGGGTGGCCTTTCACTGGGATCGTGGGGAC: 0.344 ratio
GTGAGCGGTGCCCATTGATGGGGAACAAATGCCAACGTGTATTGGACTTCCCTCTAGTGGTTACATGCAAAATGACAAGCCTATAGTTCCCAAACAGAATGTTGTGTTGTTCTCTACACTGTTTACTTAGCAATCTGGATATTTACTGTGCTTCACTCCATGTACCTTCCATTCACACACTTGGCAAACACCATATCTTCCATGATATTCTCCTGTATCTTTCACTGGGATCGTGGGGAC: 0.475 ratio
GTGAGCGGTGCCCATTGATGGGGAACTGGGCTTCGTATAATTACAATTCGTAAAATCAGTTGGCCTAATACTGTCTGAATAAACTTTTATTTAAAAAAAGAAAAAACGAAAATGTTATATGTAATCTGGGACTCTGGGAAGATATGAAGAGTTGGTAGTCTCCACTCTCATAGAAAACAAAGCCCGAAGAGGCAGGGGTGGGAGGAGTCCTAAAGAAGATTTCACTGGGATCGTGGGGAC: 0.0137 ratio
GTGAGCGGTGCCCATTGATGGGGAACGTGAGAAAGAAAATATAAAAGAGCTGAGTCAAATCTGGAGTCAATAAAGGTTTGTAGTTCTTCAAACAAGAACCCTTGCTCTGAATTCTAAAAGTAAATAACAGACATGCTGAAAAAATATTTCATTTTATGAAAGGTTCTGCACCAAAGCCTTTTACAAAAACAGTCTACAAAACCTACTAAACATCCTGTTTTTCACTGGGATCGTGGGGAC: 0.31 ratio
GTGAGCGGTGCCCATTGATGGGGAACATCTTCCCCCTCTTCCTTGCCCCACCAGCTCACCTTCCCGGGTATCTGCAAATAAGTATTTATTTTCAAGCCGGCATTCGTTAACCCTCTTCTGGCGCAAACTGCACATTGGTCTGGATCTAACATGGTCCTTTGGCGACGCCAGGCTCCGGGAGAGCAAAGCACCGTGTCAGGGCCATGATCCGGGGTGGCCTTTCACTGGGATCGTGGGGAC: 0.144 ratio

Sample 3
Target: Probable WRKY transcription factor 11, DNA-binding domain (WRKY11, Arabidopsis thaliana, UniProt Q9SV15, residues 228-325)
Technique: DNA-protein interaction ELISA
Form: double-stranded DNA, one strand shown
Sample: in vitro, bacterial lysate
Tested at: not given
Setting: whole dsDNA probe, crude lysate protein
Baseline: highest signal in screen
Direction: higher = stronger binding
Measurement: relative absorbance
Target sequence (chain): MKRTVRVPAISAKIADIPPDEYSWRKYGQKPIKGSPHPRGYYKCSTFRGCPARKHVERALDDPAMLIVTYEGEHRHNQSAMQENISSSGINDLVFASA
AAAAAAAAGGACATTTTTTCTTTTTGAAAA: 13.5 % of maximum
AAAAAAGGTTGGTACGTCGAGTTCTTAAAA: 13 % of maximum
AAAAAATACATTTGACTTTGGGTTTCAAAA: 91.9 % of maximum
AAAAAACATTGATAAAATCTCCAGGCAAAA: 15.3 % of maximum
AAAAAAAAGCGTTACATCATATGGAAAAAA: 15 % of maximum
AAAAAACTAACCGTCGCAGGCGTGTGAAAA: 17.9 % of maximum

Further values, each from its own experiment
PhoQ, residues 284 288 289 292 302 303 ALSMDL — fold induction (PhoP, residues 12 14 15 18 19 NMSFL (Escherichia coli, UniProt P23836); Sort-seq, measured: YFP reporter; E. coli; PhoQ-PhoP variant library, with: 10 µM Mg2+; baseline: high Mg2+ state, higher = stronger signaling): 2.32

Repeated from above (sample 3):
AAAAAACATTGATAAAATCTCCAGGCAAAA: 15.3 % of maximum
AAAAAAAAGCGTTACATCATATGGAAAAAA: 15 % of maximum
